Published values gathered from unrelated publications.
± marks the error that the study gave. *: point of attachment.
B1: FITC-labelled, Ahx spacer, C-amide; FITC = O=C1OC2(c3ccc(O)cc3Oc3cc(O)ccc32)c2ccc(NC(=S)*)cc21; Ahx = NCCCCCC(=O)O; chain {FITC-Ahx}-KKGFYKKKQCRPSKGRKRGFCW-NH2 (cysteine pairing not given here)

`COc1cc(Cc2nnc3sc(/C=C/c4ccc(Cl)cc4)nn23)c(S(=O)(=O)N(C)C)cc1OC` has a TGI of greater than 100 µM (MRC5 normal lung fibroblasts; MTT; 48 h).
`SIYNFEKL` gave an IL-2+ cells of 87.5% (OT-I CD8+ T cells; peptide; concentration not given, primed 5 d, OVA257 100 ng/mL restimulation, added: no TGF-beta1).
`COc1ccc(-c2ccc(-c3ccc(C(=N)N)nc3)s2)cc1Cl` has a mRNA level of 1.29 ± 0.13 (HepG2; real-time PCR, measured: TXNRD1; 0.1 µM, 8 h, unit not given; relative to: untreated).
For `Ac-LRKLRKRLLRDWLKAFYDKVAEKLKEAF-NH2 (N-acetyl, C-amide)`, “Aβ42 uptake enhancement” read greater than 2 fold (THP-1 derived macrophages; peptide; concentration not given, 3 h, 37 °C, added: 2 µg/mL Aβ42; relative to: without peptide).
For `galanin`, cAMP level read “no effect” (rat sciatic nerve fibroblasts; radioimmunoassay; concentration not given, 2 min, added: 200 µM IBMX).
`CC(=O)[C@]1(O)Cc2c(O)c3c(c(O)c2[C@@H](O[C@H]2C[C@H](N)[C@H](O)[C@H](C)O2)C1)C(=O)c1ccccc1C3=O` — result for “number of downregulated proteins”: 568 (hiPSCs; LC-MS/MS proteomics; concentration not given, 24 h, fold change below 0.67).
`COc1cc2c(cc1OCc1ccccc1)CCN1Cc3c(c4c(Br)cccc4n3CO)CC21` (centres unmarked) gave a protein level of 0.97 (HepG2; Western blot, measured: PCSK9; 5 µM, 24 h, unit not given; relative to: vehicle).
`O=C1/C(=C/c2ccc(O)c(Br)c2)CN(Cc2ccccc2)C/C1=C\c1ccc(O)c(Br)c1`: “PSA reporter activity” “decreased” (LNCaP cells; reporter gene, luciferase; up to 8 to 10 µM, 2 days; relative to: CMV-Renilla control).
`SIIVFEKL` — result for “IFN-gamma single producers”: 0.2% (OT-I CD8+ T cells; peptide; primed 5 d, OVA257 100 ng/mL restimulation, added: no TGF-beta1).
`C#CCCC1(CCC(=O)N[C@@H](CC(C)C)C(=O)Nc2ccc3ccccc3c2)N=N1` has an effective concentration of no more than 10 µM (differentiating preadipocytes and MSCs; adipogenic marker expression, inducer, measured: PPARγ, FABP4, CD36).
The GI50 of `CCn1c(=O)c(-c2cc(NC(=O)Nc3ccccc3)c(F)cc2Br)cc2cnc(NC)cc21` is reported as 0.261 µM (Mo7e (KIT wild-type amplified); cell growth).
The protein level of `Cc1[nH]c2ccccc2c1CCNCc1ccc(/C=C/C(=O)NO)cc1` is reported as greater than 10 fold (human iPSC-derived NPCs; western blot, measured: TFEB; 0.5 µM, 24 h; relative to: vehicle).
`CNCCCN1c2ccccc2CCc2ccccc21` gave a [18F]-dopamine uptake of 14.3% (mouse pheochromocytoma MPC cells; 1 µM, 30 min preincubation, added: 0.024 MBq/mL [18F]-dopamine 10 min; relative to: untreated).
For `Cc1cn(CC(=O)N(CCNC(=O)COCCOCCNC(=O)COCCOCCNC(=O)CN2CCN(CC(=O)O)CCN(CC(=O)O)CCN(CC(=O)O)CC2)CC(=O)NCCN(CC(=O)NCCN(CC(=O)NCCN(CC(=O)NCCN(CC(=O)NCCN(CC(=O)NCCN(CC(=O)NCCN(CC(=O)NCCN(CC(=O)NCCN(CC(N)=O)C(=O)Cn2cnc3c(N)ncnc32)C(=O)Cn2cnc3c(N)ncnc32)C(=O)Cn2cnc3c(=O)[nH]c(N)nc32)C(=O)Cn2cnc3c(N)ncnc32)C(=O)Cn2ccc(N)nc2=O)C(=O)Cn2cnc3c(=O)[nH]c(N)nc32)C(=O)Cn2cc(C)c(=O)[nH]c2=O)C(=O)Cn2cnc3c(=O)[nH]c(N)nc32)C(=O)Cn2cnc3c(N)ncnc32)c(=O)[nH]c1=O` [lutetium-177 labelled], “peak cellular uptake” read 8.59 ± 0.62% (K1; gamma counting; 6 h; relative to: added probe).
For `COc1cc2c(cc1OC)C1CC(=O)C(CC(C)C)CN1CC2` (centres unmarked), the [18F]-DOPA retention was 12.1% (mouse pheochromocytoma MPC cells; 10 µM, 30 min preincubation, added: 0.029 MBq/mL [18F]-DOPA 120 min; relative to: control).
Under “fold decrease in ROS”, `O=C(/C=C/c1ccc(O)c(O)c1)c1ccc(O)cc1O` is recorded as 1.64 (MRC-5; H2O2-induced intracellular ROS; concentration not given, 24 h pretreatment, added: H2O2 5 mM for 15 min; relative to: untreated H2O2-exposed cells).
`CC(C)(C)OC(=O)Nc1cccc(-c2cc(C(=O)NCCc3cc(C(=O)NO)no3)no2)c1` gave a GI50 of greater than 50 µM (L3.6pl; cell growth or viability, MTS; 72 h).
For `COc1ccc(-c2ccc(-c3ccc(C(=N)N)nc3)s2)cc1`, the mRNA level was 1.57 ± 0.76 (HepG2; real-time PCR, measured: caspase-3; 0.1 µM, 8 h, unit not given; relative to: untreated).
`NC1=NC(=S)NC12CCCCC2` gave an inhibition of 94.6% (human erythrocytes; hypotonicity-induced hemolysis; 600 µg/mL, 1 h).
For `CSVTCR`, the adherent cells was 159% (rabbit smooth muscle cells; peptide; 2 µg coated per well, 30 to 60 min; relative to: thrombospondin-coated wells).
`COc1cc2c(cc1Cc1cccc(Cl)c1F)c(=O)c(C(=O)O)cn2[C@H](CO)C(C)C` has a classification accuracy of less than 100% (human neural progenitor cells; concentration not given; relative to: DMSO).
`COc1ccc2c(c1)c(CC(=O)O)c(C)n2C(=O)c1ccc(Cl)cc1` has an inhibition of 97.3% (human erythrocytes; hypotonicity-induced hemolysis; 800 µg/mL, 1 h).
`COc1cc(O)c2c(c1)O[C@H](c1ccc(O)cc1)CC2=O` gave a Hill slope of -2.2 ± 0.3 (BV-2; NO release, inhibitor, Griess; 24 h, added: 10 µg/mL LPS + 1 µM nicotine).
With `CCCCCCCCCCCCCCCCCCOCC(COP(=O)([O-])OCC[N+](C)(C)C)OC` (centres unmarked) the GI50 was 3.94 to 44.3 µM (leukaemia cells; range over four lines).
For `CC(C)(N)C(=O)O`, the Kd was 45000 µM (Ehrlich ascites cells, mouse; Na+ binding to carrier; equilibrium model K1).
The inhibition of `Cc1cc(-c2ccccc2)c2c(n1)C1(CCCCC1)NC2=O` is reported as 74.6% (human erythrocytes; hypotonicity-induced hemolysis; 200 µg/mL, 1 h).
The GI50 of `CCCCCCCCCCCCCCCCCCOc1ccccc1CC(=O)OCC[N+](C)(C)C` is reported as less than 3 µM (leukaemia cells; range over four lines).
`B1` has a cellular uptake of roughly 62% (CHO pgsD-677, heparan sulfate-deficient; flow cytometry; 20 µM, 2 h, 37 °C, FITC-labelled peptide; relative to: wild-type CHO-K1).
The inhibition of `O=C1NC2(CCCCC2)c2nc3c(c(-c4ccccc4)c21)CCCC3` is reported as 108% (human erythrocytes; hypotonicity-induced hemolysis; 400 µg/mL, 1 h).
`CC[C@H](Nc1ncnc2[nH]cnc12)c1nc2cccc(F)c2c(=O)n1-c1ccccc1` — result for “minimum effective concentration”: no less than 300 nM (primary CLL cells; AKT phosphorylation, inhibitor; 30 min, added: anti-IgM; to unstimulated level).
`O=C1NC2(CCCCC2)c2[nH]c(=S)nc(-c3ccccc3)c21` has an inhibition of 85.1% (human erythrocytes; hypotonicity-induced hemolysis; 800 µg/mL, 1 h).
For `COC(=O)[C@H]1[C@H]2C[C@@H]3c4[nH]c5cc(OC)ccc5c4CCN3C[C@H]2C[C@@H](OC(=O)c2cc(OC)c(OC)c(OC)c2)[C@@H]1OC`, the [18F]-dopamine retention was 21.4% (mouse pheochromocytoma MPC cells; 10 µM, 30 min preincubation, added: 0.024 MBq/mL [18F]-dopamine, 120 min retention phase; relative to: control).
For `C[C@H](NC(=O)Cc1cc(F)cc(F)c1)C(=O)N[C@H](C(=O)OC(C)(C)C)c1ccccc1`, mRNA level read “decreased” (HPB-ALL; qPCR, measured: c-MYC; 30 µM, 16 h, 37 °C; relative to: untreated).
Under “lowest effective concentration”, `CNC(=O)c1cccc2cc(Oc3ccnc4cc(OCC5(N)CC5)c(OC)cc34)ccc12` is recorded as no less than 100 nM (NCI-H1581; inhibitor, Western blot; 2 h, serum starved).
`C/C(=C\COP(=O)(O)OP(=O)(O)O)CO` has a Hill slope of 0.68 (γδ T cells with loaded K562 cells; IFN-γ production, ELISA; 2 h).
For `COc1cc(-c2ccc(-c3ccc(C(=N)N)nc3)s2)cc(OC)c1OC`, the mRNA level was 1.07 ± 0.12 (HepG2; real-time PCR, measured: TXNRD1; 0.1 µM, 8 h, unit not given; relative to: untreated).
For `O=C1CCC(=O)C2(CCCCC2)N1`, the inhibition was 84.7% (human erythrocytes; hypotonicity-induced hemolysis; 1000 µg/mL, 1 h).
`CSTSCG` has an adherent cells of 22% (rabbit smooth muscle cells; peptide; 2 µg coated per well, 30 to 60 min; relative to: thrombospondin-coated wells).
`O=C(N/N=C/c1ccccc1O)c1ccncc1` — result for “labile iron pool concentration”: 2.93 ± 0.44 µM (human erythrocytes; iron chelator, calcein dequenching; 100 µM).
`C=C1C(=O)O[C@H]2[C@H]1CCC(C)=C1CC[C@@](C)(O)[C@@H]12` gave a viability of 50% (M9-ENL1; annexin V, 7-AAD; 20 µM, 24 h).
For `AIAEGDSHVLKEGAY / MEIFDVQGHVFGGKIFRVVDLGSHNVA (oligomer)`, “T cell association” read 37 to 41% (human T cells; flow cytometry, ThT label; peptide; 5 µM, 1 h).

For quick reference, copied from above:
For `Ac-LRKLRKRLLRDWLKAFYDKVAEKLKEAF-NH2 (N-acetyl, C-amide)`, “Aβ42 uptake enhancement” read greater than 2 fold (THP-1 derived macrophages; peptide; concentration not given, 3 h, 37 °C, added: 2 µg/mL Aβ42; relative to: without peptide).
`C#CCCC1(CCC(=O)N[C@@H](CC(C)C)C(=O)Nc2ccc3ccccc3c2)N=N1` has an effective concentration of no more than 10 µM (differentiating preadipocytes and MSCs; adipogenic marker expression, inducer, measured: PPARγ, FABP4, CD36).
`CC(C)(C)OC(=O)Nc1cccc(-c2cc(C(=O)NCCc3cc(C(=O)NO)no3)no2)c1` gave a GI50 of greater than 50 µM (L3.6pl; cell growth or viability, MTS; 72 h).
